Measurements from different studies.
Each line is one published result; not all experiments were run side by side. Numbers after ± are the reported error.

C[C@H]1N=C(c2ccccc2F)c2cc(Br)ccc2-n2cnc(C(=O)OC3O[C@H](C(=O)O)[C@@H](O)[C@H](O)[C@H]3O)c21 (stereo partly shown) — cumulative excretion (LC-MS/MS; Swiss Webster mouse, female, urine; oral, 750 µg parent drug, 24 to 48 h): 0.6 ± 0.3%
CCCCCCCCCCCC(=O)N=C(N)NCCC[C@H](NC(=O)[C@H](CC(C)C)NC(=O)[C@@H](CC(C)C)NC(=O)[C@H](Cc1ccc(O)cc1)NC(=O)[C@H](CO)NC(=O)[C@H](Cc1c[nH]c2ccccc12)NC(=O)[C@H](Cc1c[nH]cn1)NC(=O)[C@@H]1CCC(=O)N1)C(=O)N1CCC[C@H]1C(=O)NCC — conversion to leucine (human plasma; 21 days, pH 7.4, 37 °C): 95.5 ± 6.09%
CC[C@H](C)[C@H](NC(=O)[C@H](CCCCN)NC(=O)CNC(=O)[C@@H](NC(=O)[C@@H](NC(=O)[C@H](CC(N)=O)NC(=O)[C@H](CC(=O)O)NC(=O)[C@@H](N)CC(=O)O)C(C)C)[C@@H](C)CC)C(=O)N[C@@H](Cc1c[nH]c2ccccc12)C(=O)N[C@@H](CO)C(=O)N[C@@H](CCCCN)C(=O)N[C@@H](CC(C)C)C(=O)N[C@H](C(=O)N[C@H](C(=O)N[C@H](C(=O)N[C@H](C(=O)N[C@H](C(=O)N[C@@H](CCCCN)C(=O)N[C@H](C(=O)N[C@@H](Cc1ccccc1)C(=O)N[C@H](C(=O)N[C@@H](CCCCN)C(=O)O)[C@@H](C)O)[C@@H](C)CC)[C@@H](C)O)[C@@H](C)CC)C(C)C)[C@@H](C)O)[C@@H](C)CC — fractional helicity (circular dichroism; POPC vesicles; pH 7.5): 0.61
O=c1oc2cc(O)ccc2c2cc(O)c(O)cc12 — pKa2 (potentiometric titration; water, extrapolated from methanol/water; 25 °C): 9.1
CC(C)C[C@@H](NC(=O)[C@@H](CCCCN)NC(=O)CNC(=O)CNC(=O)[C@@H]1CSSC[C@H](N)C(=O)NCC(=O)N[C@@H](CCCNC(=N)N)C(=O)N[C@@H](CCCNC(=N)N)C(=O)N[C@@H](C)C(=O)NCC(=O)NCC(=O)N[C@@H](CO)C(=O)N1)C(=O)N[C@H](C)C(=O)N[C@H](CCCCN)C(=O)N[C@H](CC(C)C)C(=O)N[C@H](C)C(=O)N[C@H](CCCCN)C(=O)N[C@H](CCCCN)C(=O)N[C@H](CC(C)C)C(=O)N[C@H](C)C(=O)N[C@H](CCCCN)C(=O)N[C@H](CC(C)C)C(=O)N[C@H](C)C(=O)N[C@H](CCCCN)C(=O)O — AUC (cynomolgus monkey, plasma; intravenous, 9 mg/kg, infusion): 26800 ng·h/mL
N=C(N)NCCC[C@@H]1NC(=O)[C@H](CCCNC(=N)N)NC(=O)[C@H](CCCNC(=N)N)NC(=O)[C@H](CCCNC(=N)N)NC(=O)[C@H](Cc2c[nH]c3ccccc23)NC(=O)[C@H](CCCNC(=N)N)NC(=O)[C@H](CCCNC(=N)N)NC(=O)[C@@H](N)CCCn2cc(nn2)C[C@@H](C(N)=O)NC1=O — hatching rate (zebrafish embryos; 50 µg/mL, 72 h): 55%
O=c1cc(-c2ccccc2)oc2c(Br)c(O)c(O)c(O)c12 — Vz (C57BL/6 mouse, plasma; po, 250 mg/kg): 696 ± 139 mL
O=C(CN1CCN(c2cc3c(cc2F)c(=O)c(C(=O)O)cn3C2CC2)CC1)Nc1ccc(Cl)cc1 — peripheral volume (female BALB/c mice; intravenous, 3.75 mg/kg): 0.243 mL
COc1cc(NC(=O)C(=O)c2c(C)n(Cc3ccc(Cl)cc3)c3ccc(C)cc23)ccn1 — Cmax (male cynomolgus monkey, plasma; oral, 10 mg/kg): 489 ng/mL
CN(C)C(CNC(=O)Nc1cc(C(F)(F)F)ccc1N1CCOCC1)c1ccncc1 (stereo not shown) — serum indirect bilirubin (mouse, serum; intraperitoneal, 180 mg/kg single dose): 0.2 mg/dL
CC[C@H](C)[C@H](NC(=O)[C@H](C)NC(=O)[C@H](C)NC(=O)[C@H](CCC(N)=O)NC(=O)CNC(=O)[C@H](CC(C)C)NC(=O)[C@H](Cc1c[nH]cn1)NC(=O)[C@H](CCCCN)NC(=O)[C@H](C)NC(=O)CNC(=O)[C@H](CCCCN)NC(=O)[C@H](CCCNC(=N)N)NC(=O)[C@H](CC(C)C)NC(=O)[C@H](Cc1c[nH]c2ccccc12)NC(=O)[C@H](CCCCN)NC(=O)[C@H](CCCCN)NC(=O)[C@H](Cc1c[nH]c2ccccc12)NC(=O)CN)C(=O)N[C@@H](CCCCN)C(N)=O — acute toxic concentration (zebrafish embryos; 1 h, 4, 28, 52 hpf): 5 µg/mL
CSCC[C@@H]1NC(=O)[C@@H]2CSSC[C@H](NC(=O)[C@H](CO)NC(=O)[C@H](C)N)C(=O)N[C@@H](CCCNC(=N)N)C(=O)N[C@@H]([C@@H](C)O)C(=O)N3CCC[C@H]3C(=O)N[C@@H](CCCCN)C(=O)N[C@@H](CC(=O)O)C(=O)N[C@H]3CSSC[C@H](NC(=O)[C@H](CCCCN)NC(=O)[C@H](CCCNC(=N)N)NC(=O)[C@H](CC(N)=O)NC1=O)C(=O)N[C@@H](CCCCN)C(=O)N[C@H]1CSSC[C@H](NC(=O)[C@@H]4CCCN4C(=O)[C@H](CC(=O)O)NC(=O)[C@H](C)NC3=O)C(=O)N[C@@H](C)C(=O)N[C@@H](CCCCN)C(=O)N[C@@H](CCC(=O)O)C(=O)N[C@@H]([C@@H](C)O)C(=O)NCC(=O)N[C@@H](CSSC[C@@H](C(N)=O)NC(=O)[C@H](CCCNC(=N)N)NC(=O)[C@H](CC(N)=O)NC1=O)C(=O)N1CCC[C@H]1C(=O)N[C@@H](Cc1ccc(O)cc1)C(=O)NCC(=O)N[C@@H](CCCCN)C(=O)N2 — Sodium (DA rat pristane-induced arthritis, serum; subcutaneous, 0.1 mg/kg once weekly, 21 days): 144 mmol/L
CC[C@H](C)C(=O)N1CCC(NC(=O)Nc2ccc(OC(F)(F)F)c(F)c2)CC1 — subjects with related TEAE (healthy volunteers; oral, 16 mg single dose): 0%
CC(C)[C@@H]1NC(=O)[C@H](Cc2ccccc2)NC(=O)[C@H](Cc2ccc(O)cc2)NC(=O)CCSSC[C@@H](C(=O)N2CCC[C@H]2C(=O)N[C@H](CCCNC(=N)N)C(=O)NCC(N)=O)NC(=O)[C@H](CCC(N)=O)NC1=O — haematocrit (Wistar rat, blood; intravenous, 10 µg/kg single dose, 72 h): 41 ± 2.2%
COc1ccc([N+]#[C][Re]2(=[C]=O)(=[C]=O)(=[C]=O)[N]3C(C)=CC=c4ccc5c(c43)[N]2C(C)=CC=5)cc1.O=S(=O)([O-])C(F)(F)F — emission maximum (PBS, up to 1% DMSO; pH 7.4, air-equilibrated): 506 nm
CC[C@H](C)[C@@H]1NC(=O)[C@H]([C@@H](C)O)NC(=O)[C@H](CO)NC(=O)[C@H](CCSC)NC(=O)[C@H](CCCNC(=N)N)NC(=O)[C@@H]2CCCN2C(=O)[C@H](CC(=O)O)NC(=O)CNC(=O)[C@@H]2CSSC[C@@H]3NC(=O)[C@H]([C@@H](C)O)NC(=O)[C@H](CCCCN)NC(=O)[C@@H]4CCCN4C(=O)[C@H](CSSC[C@H](NC(=O)[C@H](C(C)C)NC(=O)[C@H](CC(N)=O)NC(=O)[C@H](CCC(N)=O)NC(=O)[C@@H]4CCCN4C(=O)[C@H]([C@@H](C)CC)NC(=O)[C@H](CCCNC(=N)N)NC(=O)[C@H](CC(=O)O)NC(=O)[C@H](CCCNC(=N)N)NC(=O)[C@@H](N)CSSC[C@@H](C(N)=O)NC(=O)[C@H](CCCCN)NC(=O)CNC3=O)C(=O)N[C@@H](CCC(=O)O)C(=O)N[C@@H](CCC(N)=O)C(=O)N[C@@H](CCSC)C(=O)N[C@@H](CCCCN)C(=O)N[C@@H](CCCCN)C(=O)N[C@@H](CC(N)=O)C(=O)NCC(=O)N[C@@H](CCCCN)C(=O)N2)NC(=O)[C@H](CCC(N)=O)NC(=O)[C@H](CC(C)C)NC(=O)[C@H](CCC(=O)O)NC(=O)[C@H](C)NC1=O — half-life (chemical stability; pig, simulated intestinal fluid): 4.4 h
CN[C@](C)(C[18F])C(=O)O — tissue uptake (SCID mouse U87 xenograft, brain; 120 min, post injection): 0.3 ± 0.1 %ID/g
[2H]C([2H])([2H])C([2H])([2H])C([2H])([2H])OC(C(=O)OC1CCNCC1)(c1ccccc1)c1ccccc1 — adverse events (item: otitis media; healthy Japanese male; oral, 12 mg once daily, 16 days): 14.3%
CC(C)C[C@@H](N)C(=O)NCC(=O)N[C@H](C)C(=O)N[C@H](CO)C(=O)N[C@H](Cc1c[nH]c2ccccc12)C(=O)N[C@H](Cc1c[nH]cn1)C(=O)N[C@H](CCCNC(=N)N)C(=O)N1CCC[C@@H]1C(=O)N[C@H](CC(=O)O)C(=O)N[C@H](CCCCN)C(=O)N[C@H](CS)C(=O)N[C@H](CS)C(=O)N[C@H](CC(C)C)C(=O)NCC(=O)N[C@H](Cc1ccc(O)cc1)C(=O)N[C@H](CCC(N)=O)C(=O)N[C@H](CCCCN)C(=O)N[C@H](CCCNC(=N)N)C(=O)N1CCC[C@@H]1C(=O)N[C@H](CC(C)C)C(=O)N1CCC[C@@H]1C(N)=O — accuracy (LC-MS/MS; rat plasma extract; 5000 ng/mL, 4 h, 8 °C, autosampler storage; baseline: nominal): 99.8%
O=C(NCCCCCn1ccc2ccc(F)cc21)Oc1cccc(F)c1 — inhibition of degradation (porcine liver S9 fraction; 20 µM, 30 min, together with: BNPP 1 mM): 45%
CCCCCCCCCCCCC(=O)O.O=C1CCCC2C3CCCN4CCCC(CN12)C34 (stereo not shown) — critical aggregation concentration (water; concentration not given, 308.15 K): 0.00099 mol/kg
COc1ccc(NC(=O)Cn2c(=O)c3ccccc3n(CC(=O)Nc3cc([125I])c(OC)cc3OC)c2=O)cc1 — tracer uptake (rat, liver; intravenous, 30 min): 0.36 %ID/g
CCCC[C@H]1C(=O)N(C)[C@@H](CCCC)C(=O)N[C@@H](CCCNC(=O)CN2CCN(CC(=O)O)CCN(CC(=O)O)CCN(CC(=O)O)CC2)C(=O)N[C@H](C(=O)NCC(N)=O)CSCC(=O)N[C@@H](Cc2ccc(O)cc2)C(=O)N(C)[C@@H](C)C(=O)N[C@@H](CC(N)=O)C(=O)N2CCC[C@H]2C(=O)N[C@@H](Cc2c[nH]cn2)C(=O)N[C@@H](CC(C)C)C(=O)N(C)CC(=O)N[C@@H](Cc2c[nH]c3ccccc23)C(=O)N[C@@H](CO)C(=O)N[C@@H](Cc2c[nH]c3ccccc23)C(=O)N1C [gallium-68 labelled] — tissue-to-tissue ratio (NOD/SCID mice, CHO-hPD-L1 xenograft, tumour over muscle; iv, dose not given, 120 min; baseline: tumour over muscle): 18.9 ± 9.35
CC(C)[C@H](NC(=O)CNC(=O)[C@H](CCC(N)=O)NC(=O)[C@H](C)N)C(=O)O — discontinuation due to adverse events (human; 1 mg/kg single dose): 0%
C[C@]12C(=O)[C@](C)(C(c3ccccc3)=C1c1ccccc1)C1(Br)C(=O)N(CCN)C(=O)C12 (stereo partly shown) — decomposition temperature (thermogravimetric analysis): 125 °C
COC(=O)C[C@](O)(CCCC(C)(C)OC(C)=O)C(=O)O[C@@H]1C(OC)=C[C@]23CCCN2CCc2cc4c(cc2[C@H]13)OCO4 — concentration (CD1 mouse, plasma; oral, 1 mg/kg, 0.5 h): 615 ng/mL
CC(=O)O[C@H]1CC[C@]2(C)[C@H]3C[C@@H](OC(C)=O)[C@]4(C)[C@@H](C5=CC(=O)OC5)CC[C@]4(O)[C@@H]3CC[C@@]2(N)C1 — logD (pH 7.4): 0.817
CCN(Cc1ccccc1)C(=O)CCc1nc(CN2CCN(C(=O)Cc3ccc(OC)c(OC)c3)CC2)no1 — concentration (rat, kidney; intravenous, 1 mg/kg, 5 min, single dose): < 1.8 ng/g

Some of these lines once more:
CC[C@H](C)[C@@H]1NC(=O)[C@H]([C@@H](C)O)NC(=O)[C@H](CO)NC(=O)[C@H](CCSC)NC(=O)[C@H](CCCNC(=N)N)NC(=O)[C@@H]2CCCN2C(=O)[C@H](CC(=O)O)NC(=O)CNC(=O)[C@@H]2CSSC[C@@H]3NC(=O)[C@H]([C@@H](C)O)NC(=O)[C@H](CCCCN)NC(=O)[C@@H]4CCCN4C(=O)[C@H](CSSC[C@H](NC(=O)[C@H](C(C)C)NC(=O)[C@H](CC(N)=O)NC(=O)[C@H](CCC(N)=O)NC(=O)[C@@H]4CCCN4C(=O)[C@H]([C@@H](C)CC)NC(=O)[C@H](CCCNC(=N)N)NC(=O)[C@H](CC(=O)O)NC(=O)[C@H](CCCNC(=N)N)NC(=O)[C@@H](N)CSSC[C@@H](C(N)=O)NC(=O)[C@H](CCCCN)NC(=O)CNC3=O)C(=O)N[C@@H](CCC(=O)O)C(=O)N[C@@H](CCC(N)=O)C(=O)N[C@@H](CCSC)C(=O)N[C@@H](CCCCN)C(=O)N[C@@H](CCCCN)C(=O)N[C@@H](CC(N)=O)C(=O)NCC(=O)N[C@@H](CCCCN)C(=O)N2)NC(=O)[C@H](CCC(N)=O)NC(=O)[C@H](CC(C)C)NC(=O)[C@H](CCC(=O)O)NC(=O)[C@H](C)NC1=O — half-life (chemical stability; pig, simulated intestinal fluid): 4.4 h
CN[C@](C)(C[18F])C(=O)O — tissue uptake (SCID mouse U87 xenograft, brain; 120 min, post injection): 0.3 ± 0.1 %ID/g
N=C(N)NCCC[C@@H]1NC(=O)[C@H](CCCNC(=N)N)NC(=O)[C@H](CCCNC(=N)N)NC(=O)[C@H](CCCNC(=N)N)NC(=O)[C@H](Cc2c[nH]c3ccccc23)NC(=O)[C@H](CCCNC(=N)N)NC(=O)[C@H](CCCNC(=N)N)NC(=O)[C@@H](N)CCCn2cc(nn2)C[C@@H](C(N)=O)NC1=O — hatching rate (zebrafish embryos; 50 µg/mL, 72 h): 55%
